Published values of several laboratories.
± gives the spread as reported. ≈ marks a conversion by molar mass, not a printed value.
Organism: Staphylococcus aureus

SMILES = CC[C@H](C)[C@@H]1NC(=O)[C@H](CCC(N)=O)NC(=O)[C@H](CCC(=O)O)NC(=O)[C@H](CCC(=O)O)NC(=O)[C@H](CCCCN)NC(=O)[C@@H]2CCCN2C(=O)[C@H](CC(C)C)NC(=O)[C@@H](NC(=O)[C@@H](N)CO)CSSC[C@@H](C(=O)N[C@@H](CCCNC(=N)N)C(=O)N[C@@H](CCCNC(=N)N)C(=O)N[C@@H](CCCCN)C(=O)N[C@@H](CCCCN)C(=O)O)NC(=O)[C@H](CCCCN)NC(=O)[C@H](CCCNC(=N)N)NC(=O)CNC(=O)[C@H](CCCNC(=N)N)NC(=O)[C@H]([C@@H](C)O)NC(=O)[C@H](CO)NC(=O)[C@H](CCCCN)NC(=O)CNC1=O; system = ATCC 8530; conditions = MBC, 2 h, pH 7.4, 37 °C, with: LPS Escherichia coli 026:B6, peptide:LPS 1:1 w/w; endpoint = antibacterial activity; result = no inhibition
SMILES = C[C@@H](c1ccccc1)N(CC(N)=O)C(=O)CN(C(=O)CN(CCCCN)C(=O)CN(C(=O)CN(C(=O)CN(CCCCN)C(=O)CN(C(=O)CN(C(=O)CN(CCCCN)C(=O)CN(C(=O)CN(C(=O)CNCCCCN)[C@@H](C)c1ccccc1)[C@@H](C)c1ccccc1)[C@@H](C)c1ccccc1)[C@@H](C)c1ccccc1)[C@@H](C)c1ccccc1)[C@@H](C)c1ccccc1)[C@@H](C)c1ccccc1; system = USA300 LAC, mouse, abscess model; conditions = maximum tolerated dose, day three; endpoint = bacterial load; result = 49000 CFU/mL
SMILES = CC(=O)N[C@H]1CNC(=O)[C@H](Cc2ccccc2)NC(=O)[C@H](Cc2ccccc2)NC(=O)COCCOCCNC1=O; assay = reporter gene; system = AH1677; conditions = 10 µM; scale = baseline: DMSO; endpoint = AgrC activity; result = inactive
SMILES = FC(F)(F)c1ccc2nc3c4cccnc4c4ncccc4c3nc2c1.[Cl-].[Cl-].[Ru+2].c1ccncc1.c1ccncc1.c1ccncc1.c1ccncc1; system = MRSA ATCC 43300; conditions = 10 µM, 20 min, with: light 470 nm; endpoint = CFU reduction; result = > 4 log CFU
SMILES = S=C(NCc1ccccn1)NCc1ccccn1; assay = microbial growth, well diffusion; conditions = 20 µg/mL; endpoint = inhibition zone; result = 19 mm
SMILES = Cc1ccc2ccc3ccc(C)nc3c2n1.Cc1ccc2ccc3ccc(C)nc3c2n1.O.[Cl-].[Cl-].[Cl-].[Yb+3]; system = methicillin-resistant; conditions = 5 mg/mL; endpoint = zone of inhibition; result = 34 mm
SMILES = CC[C@H](C)[C@H](NC(=O)[C@H](CCCCN)NC(=O)[C@H](CCCCN)NC(=O)[C@H](CC(C)C)NC(=O)[C@H](CCCCN)NC(=O)[C@H](CCC(=O)O)NC(=O)[C@H](CCCCN)NC(=O)[C@@H](NC(=O)[C@H](CCCCN)NC(=O)[C@H](CC(N)=O)NC(=O)[C@H](CCCNC(=N)N)NC(=O)[C@H](Cc1ccccc1)NC(=O)[C@H](CCCCN)NC(=O)[C@H](CCCNC(=N)N)NC(=O)[C@H](CC(C)C)NC(=O)[C@H](CCCNC(=N)N)NC(=O)[C@H](CCCCN)NC(=O)[C@H](CCCNC(=N)N)NC(=O)[C@H](CC(C)C)NC(=O)CN)[C@@H](C)CC)C(=O)NCC(=O)N[C@@H](CCC(N)=O)C(=O)N[C@@H](CCCCN)C(=O)N[C@H](C(=O)N[C@@H](CCC(N)=O)C(=O)NCC(=O)N[C@@H](Cc1ccccc1)C(=O)N[C@H](C(=O)N1CCC[C@H]1C(=O)N[C@@H](CCCCN)C(=O)N[C@@H](CC(C)C)C(=O)N[C@@H](C)C(=O)N1CCC[C@H]1C(=O)N[C@@H](CCCNC(=N)N)C(=O)N[C@H](C(=O)N[C@@H](CC(=O)O)C(=O)N[C@@H](Cc1ccc(O)cc1)C(=O)O)[C@@H](C)O)C(C)C)[C@@H](C)CC; assay = inhibition zone; system = MRSA P1374; endpoint = lethal concentration; result = 1.2 µM
SMILES = CC[C@H](C)[C@H](NC(=O)[C@H](CCCCN)NC(=O)[C@H](CCCCN)NC(=O)[C@H](Cc1c[nH]c2ccccc12)NC(=O)[C@H](CC(N)=O)NC(=O)[C@@H](N)C(C)C)C(=O)N[C@@H](CC(C)C)C(=O)NCC(=O)N[C@@H](CCCCN)C(=O)N[C@H](C(=O)N[C@H](C(=O)N[C@@H](CCCCN)C(=O)N[C@H](C(=O)N[C@H](C(=O)N[C@@H](CCCCN)C(N)=O)C(C)C)C(C)C)[C@@H](C)CC)[C@@H](C)CC; system = MSSA RN 4220, RPMI medium; conditions = 24 h, 37 °C; endpoint = LC99.9; result = 3.7 µM
SMILES = C=Cc1cc(OC)c2c(c1)c(=O)oc1c2cc(OC)c2c(O)ccc([C@@H]3O[C@H](C)[C@H](O)[C@@](C)(O)[C@H]3O)c21; assay = crystal violet; system = USA300; conditions = 0.25 µg/mL, 0.5 x MIC; endpoint = biofilm reduction; result = 58%
SMILES = CC[C@H](C)[C@H](NC(=O)[C@H](CCCCN)NC(=O)[C@H](CCCCN)NC(=O)[C@H](CC(C)C)NC(=O)[C@H](CCCCN)NC(=O)[C@H](CCC(=O)O)NC(=O)[C@H](CCCCN)NC(=O)[C@@H](NC(=O)[C@H](CCCCN)NC(=O)[C@H](CC(N)=O)NC(=O)[C@H](CCCNC(=N)N)NC(=O)[C@H](Cc1ccccc1)NC(=O)[C@H](CCCCN)NC(=O)[C@H](CCCNC(=N)N)NC(=O)[C@H](CC(C)C)NC(=O)[C@H](CCCNC(=N)N)NC(=O)[C@H](CCCCN)NC(=O)[C@H](CCCNC(=N)N)NC(=O)[C@H](CC(C)C)NC(=O)[C@@H](N)CC(C)C)[C@@H](C)CC)C(=O)NCC(=O)N[C@@H](CCC(N)=O)C(=O)N[C@@H](CCCCN)C(=O)N[C@H](C(=O)N[C@@H](CCC(N)=O)C(=O)NCC(=O)N[C@@H](Cc1ccccc1)C(=O)N[C@H](C(=O)N1CCC[C@H]1C(=O)N[C@@H](CCCCN)C(=O)N[C@@H](CC(C)C)C(=O)N[C@H](C(=O)N1CCC[C@H]1C(=O)N[C@@H](CCCNC(=N)N)C(=O)N[C@H](C(=O)N[C@@H](CCC(=O)O)C(=O)N[C@@H](CO)C(=O)O)[C@@H](C)O)C(C)C)C(C)C)[C@@H](C)CC; assay = inhibition zone; system = MRSA P1374; endpoint = lethal concentration; result = 2.08 µM
SMILES = O=C(c1ccccc1O)c1[nH]c(Cl)c(Cl)c1-n1c(C(=O)c2ccccc2O)cc(Cl)c1Cl; system = NCTC 8325; conditions = 1 × MIC, 10 min; endpoint = intracellular pH; result = 7.5
SMILES = N#Cc1ccccc1Oc1ccc(Cl)cc1O; system = RN4220; conditions = 4 x MIC, 1 h exposure, 37 °C; endpoint = post-antibiotic effect; result = 0.91 ± 0.11 h
SMILES = CC[C@H](C)[C@@H]1NC(=O)CNC(=O)CNC(=O)[C@H](CO)NC(=O)[C@H]([C@@H](C)CC)NC(=O)[C@H](CCCCN)NC(=O)[C@H](CO)NC(=O)[C@H](CC(C)C)NC(=O)[C@@H](C(C)C)NC(=O)[C@@H]2CCCN2C(=O)[C@H]([C@@H](C)CC)NC(=O)[C@H](C(C)C)NC(=O)[C@H](CC(C)C)NC(=O)[C@@H]2CCCN2C(=O)CNC1=O; assay = time-kill; system = ATCC 25923; conditions = MIC; endpoint = time to 5-log CFU reduction; result = ≤ 6 h
SMILES = CC(=NNC(=N)N)c1nnn(-c2ccc(C#CC3(O)CCCCC3)cc2)c1C; assay = time-kill; system = MRSA; conditions = 4 × MIC, 37 °C; endpoint = time to eradication; result = ≤ 24 h
SMILES = Cc1cc(=O)nc(NC(=O)NCCCCCCNC(=O)NCCCCCCNC(=O)OCCOCCOCCOCCOCCOCCOCC(=O)N[C@@H](CC(C)C)C(=O)N[C@@H](CCCCN)C(=O)N[C@@H](CC(C)C)C(=O)N[C@@H](CC(C)C)C(=O)N[C@@H](CCCCN)C(=O)N[C@@H](CCCCN)C(=O)N[C@@H](CC(C)C)C(=O)N[C@@H](CC(C)C)C(=O)N[C@@H](CCCCN)C(=O)N[C@@H](CCCCN)C(=O)N[C@@H](CC(C)C)C(=O)N[C@@H](CC(C)C)C(=O)N[C@@H](CCCCN)C(=O)N[C@@H](CC(C)C)C(=O)N[C@@H](CC(C)C)C(N)=O)[nH]1; system = MRSA AMC 201, RPMI medium; conditions = 24 h, 37 °C; endpoint = LC99.9; result = 7.5 µM
SMILES = CCCCc1ccc(-c2nc(C)c(C(C)=NNC(=N)N)s2)cc1; system = NRS1 VISA; endpoint = MBC; result = 2.6 µg/mL (≈ 7.89 µM)
SMILES = CC[C@H](C)[C@H](NC(=O)[C@H](CCN)NC(=O)CCCCCCCCCCCNC(=O)CCCCCOC(=O)c1cn(C2CC2)c2cc(N3CCNCC3)c(F)cc2c1=O)C(=O)N[C@@H](CCN)C(=O)N[C@H](Cc1ccccc1)C(=O)N[C@@H](CC(C)C)C(=O)N[C@@H](CCN)C(=O)N[C@@H](C(=O)N[C@@H](CC(C)C)C(=O)N[C@@H](CO)C(N)=O)C(C)C; assay = optical density; conditions = 50 µM, 12 h, 37 °C; endpoint = bacterial survival; result = 24.6%
SMILES = CCOC(=O)c1sc(N/N=C/c2c(-c3ccc(C)cc3)nc3ncccn23)nc1C; assay = microbial growth, well diffusion; system = ATCC23235; conditions = 100 µg/mL; endpoint = inhibition zone; result = 15 mm
SMILES = CO.[Ag+].[S-]c1ncccn1.c1ccc(P(c2ccccc2)c2ccccc2)cc1.c1ccc(P(c2ccccc2)c2ccccc2)cc1; system = MTCC 740; conditions = 50 mg/mL, 18 to 24 h; endpoint = inhibition zone diameter; result = inactive
SMILES = CN1CC(=O)N=C1N.C[C@H](CCC(=O)O)[C@H]1CC[C@H]2[C@@H]3[C@H](O)C[C@@H]4C[C@H](O)CC[C@]4(C)[C@H]3CC[C@]12C; system = TISTR 746; conditions = 1 mg per disc, 18 to 24 h, 37 °C, 6 mm disc; endpoint = inhibition zone diameter; result = 9.5 ± 0.5 mm
SMILES = CC[C@@](C)(NC)C(=O)NC(C)(C)C(=O)NC(C)(C)C(=O)NC(C)(C)C(=O)NCC(=O)NC(C)(C)C(=O)N1CCC[C@@H]1C(=O)N[C@@H](Cc1c[nH]c2ccccc12)C(=O)NC(C)(C)C(=O)N1C[C@H](O)C[C@@H]1C(=O)N[C@@H](C)C(=O)NC(C)(C)C(=O)NCCCC(=O)N[C@@H](CC(C)C)C(=O)N[C@](C)(CC)C(=O)NC(C)(C)C(=O)N[C@](C)(CC)C(=O)N[C@H](CO)Cc1ccccc1; system = ATCC 29213; conditions = 1, 5, 10 µg/mL, 1 h, 37 °C; endpoint = extracellular ATP level; result = increased
SMILES = C[C@H](NC(=O)[C@H](CCCCN)NC(=O)[C@H](CCCCN)NC(=O)[C@H](CCC(=O)O)NC(=O)[C@@H]1CCCN1)C(=O)N[C@@H](CCCCN)C(=O)N[C@@H](CCCCN)C(=O)N[C@@H](CCCCN)C(=O)O; assay = OD600; system = ATCC 25923; conditions = concentration not given, 18 to 22 h, 37 °C, unheated; endpoint = growth inhibition; result = 26.5%

A few entries again:
SMILES = CC[C@H](C)[C@@H]1NC(=O)[C@H](CCC(N)=O)NC(=O)[C@H](CCC(=O)O)NC(=O)[C@H](CCC(=O)O)NC(=O)[C@H](CCCCN)NC(=O)[C@@H]2CCCN2C(=O)[C@H](CC(C)C)NC(=O)[C@@H](NC(=O)[C@@H](N)CO)CSSC[C@@H](C(=O)N[C@@H](CCCNC(=N)N)C(=O)N[C@@H](CCCNC(=N)N)C(=O)N[C@@H](CCCCN)C(=O)N[C@@H](CCCCN)C(=O)O)NC(=O)[C@H](CCCCN)NC(=O)[C@H](CCCNC(=N)N)NC(=O)CNC(=O)[C@H](CCCNC(=N)N)NC(=O)[C@H]([C@@H](C)O)NC(=O)[C@H](CO)NC(=O)[C@H](CCCCN)NC(=O)CNC1=O; system = ATCC 8530; conditions = MBC, 2 h, pH 7.4, 37 °C, with: LPS Escherichia coli 026:B6, peptide:LPS 1:1 w/w; endpoint = antibacterial activity; result = no inhibition
SMILES = CCOC(=O)c1sc(N/N=C/c2c(-c3ccc(C)cc3)nc3ncccn23)nc1C; assay = microbial growth, well diffusion; system = ATCC23235; conditions = 100 µg/mL; endpoint = inhibition zone; result = 15 mm
